Results of several laboratories.
Numbered parts are unrelated; each lists some results of a single study. Substitutions count along the parent as printed.

Set 1
Target: Ras GTPase-activating protein-binding protein 1, full length (G3BP1, Homo sapiens, UniProt Q13283)
UniProt Q13283, sequence (whole entry, looked up): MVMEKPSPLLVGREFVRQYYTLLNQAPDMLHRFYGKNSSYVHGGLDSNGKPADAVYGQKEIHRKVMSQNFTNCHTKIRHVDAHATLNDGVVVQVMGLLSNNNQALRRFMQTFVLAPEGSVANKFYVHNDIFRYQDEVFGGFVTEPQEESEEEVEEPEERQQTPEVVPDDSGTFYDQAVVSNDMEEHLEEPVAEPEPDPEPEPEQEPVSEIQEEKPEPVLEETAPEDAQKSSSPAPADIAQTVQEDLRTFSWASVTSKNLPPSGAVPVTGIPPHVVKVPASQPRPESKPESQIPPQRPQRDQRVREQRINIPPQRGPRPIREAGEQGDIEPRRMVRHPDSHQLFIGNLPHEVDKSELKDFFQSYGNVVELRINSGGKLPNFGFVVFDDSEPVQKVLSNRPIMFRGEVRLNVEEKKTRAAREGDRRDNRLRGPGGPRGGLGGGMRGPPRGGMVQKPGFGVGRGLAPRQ
Method: RNA Bind-n-Seq
Molecule type: RNA
Matrix: in vitro
Concentration: 200 nM
Setting: whole 134-nt RNA, ends assumed
With: 150 mM KCl
Baseline: input library
Reading: higher = stronger binding
All sequences stand within: GGGAGUUCUACAGUCCGACGAUC … UGGAAUUCUCGGGUGUCAAGG
| Oligonucleotide | log2 enrichment |
| --- | --- |
| CUGUGCUACACAUCGUAUGUACCGAAUCGGCCCCCCCGGGGCCCCCCCGGCCCCCCCGGGGAAAGUAUUAUGUUACGCCGUUCGGAUCUG | -0.754 |
| CAAGUCCUGUGCUACACAUCGUAUGUACCGAAUCGGGUGGGAAAGGGUUUUUGGGAAAGUAUUAUGUUACGCCGUUCGGAUCUGCACUUC | 0.407 |
| UGGGAGGUGGAUUUUGUUUAUUUUUUUAGCUCAUUUCCUGGGGUGGGAAUUUUUUUUUAAUAUGUGUCAUGAAUAAAGUUGUUUUUGAAA | 0.161 |
| UAACUUUAGAGGAGGAUCUGAUGGAUAUGGCAGUGGACGUGGAUUUGGGGAUGGCUAUAAUGGGUAUGGAGGAGAACCUGGAGGUGGCAA | 0.203 |
| CAAGUCCUGUGCUACACAUCGUAUGUACCGAAUCGGGUUUGGGUUUGGGUUUGGGAAAGUAUUAUGUUACGCCGUUCGGAUCUGCACUUC | 0.798 |
| CUCAAGUCCUGUGCUACACAUCGUAUGUACCGAAUCGGAAAGGAGGAAAAAGGAAAGUAUUAUGUUACGCCGUUCGGAUCUGCACUUCCA | -0.356 |
| UCAAGUCCUGUGCUACACAUCGUAUGUACCGAAUCGGGUGGGUUUUUGGGUGGGAAAGUAUUAUGUUACGCCGUUCGGAUCUGCACUUCC | 0.306 |
| CUCAAGUCCUGUGCUACACAUCGUAUGUACCGAAUCGGGCCGGCCGGCCGGGGAAAGUAUUAUGUUACGCCGUUCGGAUCUGCACUUCCA | 0.454 |
| UUCCUCAAGUCCUGUGCUACACAUCGUAUGUACCGAAUCGGGAGGAGGAGGAAAGUAUUAUGUUACGCCGUUCGGAUCUGCACUUCCAGC | -0.661 |

Set 2
Target: ABI1, truncated, D143A, DHFR fusion (Arabidopsis thaliana)
Method: DHFR PCA, deep sequencing
Matrix: yeast
Setting: methotrexate growth selection, single substitutions
With: (+)-ABA 58 µM
Baseline: wild-type fitted maximum
Reading: higher = stronger binding
Starting sequence: PYL1, truncated, DHFR fusion (Arabidopsis thaliana); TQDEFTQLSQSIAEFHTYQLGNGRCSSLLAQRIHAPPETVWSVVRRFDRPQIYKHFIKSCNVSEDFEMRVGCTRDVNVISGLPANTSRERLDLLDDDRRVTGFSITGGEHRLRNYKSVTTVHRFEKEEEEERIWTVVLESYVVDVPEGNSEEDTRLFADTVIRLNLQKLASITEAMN; partner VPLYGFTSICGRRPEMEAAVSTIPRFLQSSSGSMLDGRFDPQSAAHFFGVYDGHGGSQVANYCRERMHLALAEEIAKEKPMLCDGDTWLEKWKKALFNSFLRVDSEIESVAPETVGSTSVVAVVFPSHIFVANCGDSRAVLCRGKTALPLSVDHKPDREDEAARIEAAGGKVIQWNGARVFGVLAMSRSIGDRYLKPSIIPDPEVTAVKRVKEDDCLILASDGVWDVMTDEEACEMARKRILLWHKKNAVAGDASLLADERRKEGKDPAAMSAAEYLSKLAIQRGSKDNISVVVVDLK
| Substitution | relative binding score |
| --- | --- |
| F66P | 62.9% |
| N22K | 96% |
| A170Q | 78.2% |
| A158D | 8.42% |
| T101E | -0.194% |
| V43E | 3.01% |
| L28H | 15.5% |
| R32F | 63.3% |
| E131V | 89.8% |
| R132Q | 106% |
| T1A | 91.3% |
| T6M | 96.6% |
| H122S | 46.8% |
| L28W | 61.4% |
| E127G | 86.5% |
| V143W | -0.819% |

Set 3
Target: Centromere-binding protein 1, full length, N-terminal tag (CBF1, Saccharomyces cerevisiae, UniProt P17106, residues 1-351)
UniProt P17106, sequence (whole entry, looked up): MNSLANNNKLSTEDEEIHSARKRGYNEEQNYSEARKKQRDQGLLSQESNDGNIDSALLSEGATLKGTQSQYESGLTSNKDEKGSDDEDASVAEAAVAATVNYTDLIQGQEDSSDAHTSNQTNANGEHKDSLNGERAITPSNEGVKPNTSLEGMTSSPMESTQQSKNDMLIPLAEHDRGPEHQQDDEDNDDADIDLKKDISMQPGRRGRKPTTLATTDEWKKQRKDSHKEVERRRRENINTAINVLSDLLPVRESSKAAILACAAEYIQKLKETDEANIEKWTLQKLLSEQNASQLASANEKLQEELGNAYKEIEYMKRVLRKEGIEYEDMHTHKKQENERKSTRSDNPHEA
Method: protein-binding microarray
Molecule type: double-stranded DNA, one strand shown
Matrix: in vitro
Concentration: 0.8 µM
Setting: whole 60-bp probe, no competitor
Reading: higher = stronger binding
All sequences stand within: … GTCTTGATTCGCTTGACGCTGCTG
| Oligonucleotide | fluorescence intensity [a.u.] |
| --- | --- |
| GAACTGAATAAGTATCAGCAGAAATTTTTTAATTAG | 506 |
| CTATTAGGATGAAGAGGTGACATATAATGTTTCTTC | 508 |
| GAAAACCTGGTGTTTAACATCACTAATATGATCTAG | 515 |
| CTATTAGTGCTTCAGTACCTGATGCAAGAAATTTTC | 512 |
| GAACATTAGACTACACGTGCAGCATATACCAACTAG | 8710 |
| CTAAAACGTAAGTGTCACCCTTCTTCAAGATACTTC | 539 |
| TGTACGAAGCTATAACATGTGAATATAGTAGTTAGG | 661 |
| CTAAATAGTAATTGTCACGCAATATCTTGTGGATTC | 609 |
| CTAAATTCTCGCAAACACGTCACAAGAAACAAATTC | 772 |
| GAACTCTCAGCAGGTCATCACACATATACTTCCTAG | 564 |
| CTAAGAAGTAGATAAATCACCACGAATCATTTGTTC | 543 |
| GAAGGGGAACTGTACAACACGTTCAACCAAAACTAG | 554 |
| GAAGGTTACAAAATTCACATCATGAGTTTACGGTAG | 543 |
| GAAACACAGATCTTGCGTGCTCCGAAATAGCCTTAG | 521 |

Set 4
Target: CCNF, cyclin fold, Cln2 fusion (human)
Method: yeast growth competition, sequencing
Matrix: yeast
Setting: strong parent motif
Baseline: not given
Reading: higher = stronger binding
Starting sequence: BRCA2 docking peptide (human); PSIKRNLLNEFDR
| Substitution | normalised enrichment score |
| --- | --- |
| F11Y | 1.8 |
| L8M | 5.16 |
| R13G | 2.54 |
| P1C | 2.93 |
| L8G | 1.33 |
| K4D | 0.414 |
| N9V | 4.1 |
| I3G | 1.75 |
| K4A | 4.67 |
| P1N | 3.95 |
| R13Y | 2.78 |
| K4V | 2.58 |
| S2E | 1.09 |
| D12V | 3.21 |
| E10K | 1.28 |
| F11R | 0.962 |
